Results pooled from the literature.
Numbered parts are unrelated; each lists some results of a single study. Positions count from the first letter of the parent shown.

Block 1 — technique: RNA Bind-n-Seq; molecule type: RNA; sample: in vitro; concentration: 365 nM; baseline: no-protein control; direction: higher = stronger binding
Target: RNA binding protein fox-1 homolog 2, RRM domain, GST-SBP tag (RBFOX2, Homo sapiens, UniProt O43251-10, residues 100-194)
Setting: natural RNA segment, single round, ends assumed
Construct (chain): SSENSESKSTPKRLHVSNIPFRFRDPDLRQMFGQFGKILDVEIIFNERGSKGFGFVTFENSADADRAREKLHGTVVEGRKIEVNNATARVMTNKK
| Strand | RBNS enrichment (R) |
| --- | --- |
| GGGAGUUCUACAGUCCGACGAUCAAUUAGUGAUGAUGGUGGGCGUGAUGGAAAGAAAGAGGUGAGUGGAGACUCAGCCUGGCUAUUCUUGAGCAUGGACAGUUGUUUCUCAAGGUGUCUUCUGACUCUCCUUCUGGAAUUCUCGGGUGCCAA | 0.969 |
| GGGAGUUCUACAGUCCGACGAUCUCUUGUUUCAGCUCUUGGCCUUUACCCAUGACUCAGCCUGGGGGCUGGUGCCGGCCUUGCCUGCAGCAAUGUAGCUGAGGACUGGUCUGAAGGCCAGGAGCCCUGUGCUCUGGAAUUCUCGGGUGCCAA | 0.337 |
| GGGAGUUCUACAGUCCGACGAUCUUUGACUUCCUCUUUUCCUAAUUGAAUACCCUUUAUUUCCUUCUCCUGCCUAAUUGCCCUGGCCAGAACUUCCAACACUAUGUUGAAUACGAGUGGUGAGAGAGGGCAUCUGGAAUUCUCGGGUGCCAA | 0.669 |
| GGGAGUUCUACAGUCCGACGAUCAGAUCAGCAUGUGCUAUACUCCCUGCAAGAAAUAUACUGACAUGAACAGGCAGUUCUUGGAGAAGAAAGAGCAUUUCUUUAAGUACCUGGGGAAUACAGCUCUCAGUGAUUGGAAUUCUCGGGUGCCAA | 1.76 |
| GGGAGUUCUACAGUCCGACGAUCGCCAGACCUUCUGCUACCUCUCAUAGAAUUGCUCUGUAAUUCUAAAUUUAAAAUUAGAAGUAGAGAGAGAUAAGCCAUCGCCCCUUUGCCUCUGAGAAUUGGCUGCUGUUUGGAAUUCUCGGGUGCCAA | 1.42 |
| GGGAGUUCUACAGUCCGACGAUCCAGUUUUAUAAGUGAAAAUUUUAUUUUAAAAAACAGUGGUUUUUUUUUUUGGGUAUGUCUGGAUCAUUCAGACAGUACAUUUGAAUUCCGCUGAAUGUAGAUAAAUAAAAUGGAAUUCUCGGGUGCCAA | 1.18 |
| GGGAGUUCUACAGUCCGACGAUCUGCUGACUUUAAAAGGAUUAAUCUGGGCAGACAUUAUGUAAAAGAAAGGUUGCGUUUAAUAUAUUUUUUGAACUUUGUAGGACAAAACAUAGCUGGUUAACCUUGAAGUGUGGAAUUCUCGGGUGCCAA | 0.461 |
| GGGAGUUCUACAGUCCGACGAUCAUAUGUGUCCUUGACGUGCAAGCUUUGUAAAACCCCAUCCCCGCUUAGGUGCGAGGCAUCACCUUCUCACAAGUGUUUAGUUUCUUUUAACCACAAGUAUCAUUCUUGGGUGGAAUUCUCGGGUGCCAA | 0.734 |

Block 2 — technique: protein-binding microarray; molecule type: double-stranded DNA, one strand shown; sample: in vitro; concentration: 250 nM; setting: 60-bp whole probe; with: salmon DNA 0.4 mg/ml; baseline: random background probes; direction: higher = stronger binding; constant ends, left off below: GCCTAGCAC … GTCTTGATTCGCTTGACGCTGCTG
Target: Interferon regulatory factor 7, full length, phosphomimetic (IRF7, Homo sapiens, UniProt Q92985, residues 1-503, S101K/S471D/S472D/S475D/S476D/S477D/S483D/S484D/S487D)
Residues (chain): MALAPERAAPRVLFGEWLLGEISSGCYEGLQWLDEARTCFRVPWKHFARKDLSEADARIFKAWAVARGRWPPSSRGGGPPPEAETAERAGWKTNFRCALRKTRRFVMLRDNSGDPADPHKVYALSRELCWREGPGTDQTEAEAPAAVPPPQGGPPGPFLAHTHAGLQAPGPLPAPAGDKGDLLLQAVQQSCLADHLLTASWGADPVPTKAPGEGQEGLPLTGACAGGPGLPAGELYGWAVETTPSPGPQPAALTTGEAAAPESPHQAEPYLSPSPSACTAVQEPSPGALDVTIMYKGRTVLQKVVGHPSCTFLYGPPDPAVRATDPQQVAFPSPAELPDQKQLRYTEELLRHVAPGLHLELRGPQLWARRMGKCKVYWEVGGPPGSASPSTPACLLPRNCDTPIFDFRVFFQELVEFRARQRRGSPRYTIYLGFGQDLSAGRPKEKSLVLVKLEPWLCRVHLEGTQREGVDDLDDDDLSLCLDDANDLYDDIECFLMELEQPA
| Strand | log fluorescence |
| --- | --- |
| TTCAGTCCCCTCTTCTGGATGTGCTAG | 0.516 z-score |
| TTAGGTTTCGGGACTGGGTTAGTGCTA | 3.78 z-score |
| TTGGTGCTCATTTTTTTTGCGTGCTAG | -0.674 z-score |
| GACGGTTTCGGGTTTCGGGGCGTGCTA | 11.2 z-score |
| TCATTCATGAAATTTTAGACTGTGCTA | 0.514 z-score |
| TCAAGACTCTCTTGTCTGACTGTGCTA | -0.0482 z-score |
| TCATTTATGGTATTTTTACTGTGCTAG | 0.435 z-score |
| TCAAATAATCTTTTCACACTGTGCTAG | 0.127 z-score |
| TTAGAACTGAGTTTCGAGTAGTGCTAG | 3.48 z-score |
| TCAATTGGTTGAACATGACTGTGCTAG | 0.242 z-score |
| GACGGTTTCGGGTATCGGAACGTGCTA | 8.16 z-score |
| TCAATTATATATATCATACTGTGCTAG | 0.53 z-score |
| AAGACTCTCTTGTCTGGATGTGTGCTA | 0.232 z-score |
| GACGGACTGGACTTTTGGGACGTGCTA | -0.993 z-score |
| GAAGGACTGGGACTGGGGACGTGCTAG | -0.552 z-score |
| TTTGGCTTTCCTTTATGTCCGTGCTAG | 0.0104 z-score |
| ATAGGTTTCGGACTGGGTTAGTGCTAG | 3.77 z-score |
| GACGATCTCAGTCTCGAGAGGTGCTAG | -0.169 z-score |
| ATAGATCTCAGTTTCGATTAGTGCTAG | 8.25 z-score |

Block 3 — target: CCNB2, cyclin fold, Cln2 fusion (human); technique: yeast growth competition, sequencing; sample: yeast; setting: weak parent motif; baseline: not given; direction: higher = stronger binding
Parent: CDKN1A docking peptide (human); SKACRRLFGPVDS
| Substitution | normalised enrichment score |
| --- | --- |
| R6V | -0.18 |
| P10C | 0.0808 |
| F8G | 0.201 |
| V11F | 0.0951 |
| A3E | 0.311 |
| C4A | 0.1 |
| V11W | 0.407 |
| K2M | 0.479 |
| F8N | -0.185 |
| A3P | 0.928 |
| K2V | 0.844 |
| D12T | 0.0553 |
| R6P | -0.544 |
| A3R | 0.471 |
| V11Q | 0.187 |
| R6F | 0.229 |
| P10H | 0.125 |
| D12G | 0.0444 |
| S13A | 0.489 |
| L7M | 0.54 |
| R5A L7A | 0.088 |
| R6Q | -0.0799 |
| C4W | 0.334 |
| D12I | 0.498 |
| P10S | 0.32 |

Block 4 — target: UBE2E1 UBC core domain (UniProt P51965); technique: yeast two-hybrid; sample: yeast; setting: mostly zero background; baseline: not given; direction: higher = stronger interaction
Chain of UniProt P51965 (whole entry, looked up): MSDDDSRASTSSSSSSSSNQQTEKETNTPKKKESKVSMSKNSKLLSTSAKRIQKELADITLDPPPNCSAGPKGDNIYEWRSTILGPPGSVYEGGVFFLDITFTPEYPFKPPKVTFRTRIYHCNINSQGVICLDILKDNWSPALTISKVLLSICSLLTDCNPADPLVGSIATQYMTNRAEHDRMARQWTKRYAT
B1: SH3RF1 RING domain (UniProt Q7Z6J0); chain DESALLDLLECPVCLERLDASAKVLPCQHTFCKRCLLGIVGSRNELRCPECRTLVGSGVEEL
B2: MDM4 RING domain (UniProt O15151); chain MEDCQNLLKPCSLCEKRPRDGNIIHGRTGHLVTCFHCARRLKKAGASCPICKKEIQLVIKVF
B3: RNF19A RING domain (UniProt Q9NV58); chain ISKQIGDFIECPLCLLRHSKDRFPDIMTCHHRSCVDCLRQYLRIEISESRVNISCPECTERFNPHDIR
B4: MAP3K1 RING domain (UniProt Q13233); chain NSIKDEEEQMCPICLLGMLDEESLTVCEDGCRNKLHHHCMSIWAEECRRNREPLICPLCRSKWRSHDFYS
B5: DZIP3 RING domain (UniProt Q86Y13); chain PDEEEEEEEPCVICHENLSPENLSVLPCAHKFHAQCIRPWLMQQGTCPTCRLHVLLPEEFP
B6: TRIM62 RING domain (UniProt Q9BVG3); chain MACSLKDELLCSICLSIYQDPVSLGCEHYFCRRCITEHWVRQEAQGARDCPECRRTFAEPALAP
B7: SYTL4 RING domain (UniProt Q96C24); chain RGSQHYSDRTCARCQESLGRLSPKTNTCRGCNHLVCRDCRIQESNGTWRCKVCAKEIELKKAT
B8: RNF121 RING domain (UniProt Q9H920); chain MPTKHLSDSVCAVCGQQIFVDVSEEGIIENTYRLSCNHVFHEFCIRGWCIVGKKQTCPYCKEKVDLKRMFS
| Sequence | lacZ reporter activity |
| --- | --- |
| B1 (SH3RF1 RING domain) | 0 |
| FDGDVDPDLKCALCHKVLEDPLTTPCGHVFCAGCVLPWVVQEGSCPARCRGRLSAKELN (PDZRN3 RING domain (UniProt Q9UPQ7)) | 0 |
| KLRKLKEAMLCMVCCEEEINSTFCPCGHTVCCESCAAQLQSCPVCRSRVEHVQHVY (MYLIP RING domain (UniProt Q8WY64)) | 0 |
| B2 (MDM4 RING domain) | 0 |
| AMYLQENGIDCPKCKFSYALARGGCMHFHCTQCRHQFCSGCYNAFYAKNKC (RNF31 RING domain (UniProt Q96EP0)) | 0 |
| B3 (RNF19A RING domain) | 0 |
| PEDRESLKSACVVCLSSFKSCVFLECGHVCSCTECYRALPEPKKCPICRQAITRVIPLY (MUL1 RING domain (UniProt Q969V5)) | 12000 |
| B4 (MAP3K1 RING domain) | 11900 |
| B5 (DZIP3 RING domain) | 0 |
| B6 (TRIM62 RING domain) | 0 |
| NLSELTPYILCSICKGYLIDATTITECLHTFCKSCIVRHFYYSNRCPKCNIVVHQTQPLY (PCGF6 RING domain (UniProt Q9BYE7)) | 0 |
| B7 (SYTL4 RING domain) | 0 |
| B8 (RNF121 RING domain) | 0 |

Some of these lines once more (block 2):
| Strand | log fluorescence |
| --- | --- |
| TTAGGTTTCGGGACTGGGTTAGTGCTA | 3.78 z-score |
| TTGGTGCTCATTTTTTTTGCGTGCTAG | -0.674 z-score |
| GACGGTTTCGGGTTTCGGGGCGTGCTA | 11.2 z-score |
| TCATTCATGAAATTTTAGACTGTGCTA | 0.514 z-score |
